Measured values pooled from the literature.
Every numbered part comes from another study and shows a few of its results, in no order. Changes are numbered by the printed parent chain.

Set 1 — technique: RNA Bind-n-Seq; form: RNA; medium: in vitro; concentration: 100 nM; relative to: input RNA pool; direction: higher = stronger binding; measurement: bound/input enrichment
Target: RING finger protein unkempt homolog, zinc fingers 1-6, SBP tag (UNK, Homo sapiens, UniProt Q9C0B0, residues 30-357)
Sequence of UniProt Q9C0B0 (30-357, looked up): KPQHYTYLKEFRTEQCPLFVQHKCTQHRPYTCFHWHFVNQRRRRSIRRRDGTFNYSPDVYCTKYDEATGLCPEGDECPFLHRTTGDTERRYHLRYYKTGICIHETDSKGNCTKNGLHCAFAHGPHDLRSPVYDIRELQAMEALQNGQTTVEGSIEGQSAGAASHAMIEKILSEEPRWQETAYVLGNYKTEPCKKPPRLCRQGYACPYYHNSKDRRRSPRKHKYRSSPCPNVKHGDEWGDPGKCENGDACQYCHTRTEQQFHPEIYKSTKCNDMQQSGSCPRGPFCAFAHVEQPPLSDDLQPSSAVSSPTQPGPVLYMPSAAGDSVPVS
Notes: RNA with constant flanks, vertebrate orthologous sites, ends assumed
All sequences stand within: GGGAGUUCUACAGUCCGACGAUC … CAACAGAGGAUUGAGCAUCA
AAAUCUACUUCAUGCCUUGGACUCCGUACCGAACAGACACUCUAAUCGAGUACUCCUCCUUGGAUGACUUUCAAAAUGCCCGUCAAACCAUCACCUACAAGCUGCCGCACCGGGUGGAUG: 0.346 ratio
GUCCCUCAGUGACAGUAUGCCAUCGGUAGCCGAUUCCCACUCAAGUCAUUUCUCUGAAUUUAGUUGCUCUGACCUAGAAAGCAUGAAAACUUCUUGUAGCCAUGGUUCCAGUGAUUAUCA: 0.61 ratio
CAACUCCAUGGUGGAGGGUUCGGAACUCAAAAAAGUUCGCUCCAAUUCCCGUGUGUAUCACAGGUACUUUCUUUUAGAUGCGGAUAUGCAGUCGCUGAGAUGGGAACCUUCCAAAAAAGA: 0.271 ratio
AGAAAAUUUUAACCAAGAAUCUGAAAGUAGAAAUACAGGACCAUGGUUAUCUUCCUCACUUAGAAAUAGAUGCACACCUUUGUUCUCUAGAAGGAGGCGAGAGGGAAGAGAUGAAUCUUC: 0.782 ratio
CGGCAGCAGGUGGGGUCAUUCCACGCCCUAGCCUUGCCUCCCCUUCCUGCCACCGGCUCCUAGUUAUUUUUUUUUUAACCACCAUGUGAUUAAGGUCGGAGCUGCCUCCUCCCGACCCGC: 2.43 ratio

Set 2 — technique: RNA Bind-n-Seq; form: RNA; medium: in vitro; concentration: 200 nM; notes: whole 134-nt RNA, ends assumed; with: 150 mM LiCl; relative to: input library; direction: higher = stronger binding; measurement: log2 enrichment; library: 7-deaza-guanosine replaces G
Target: Ras GTPase-activating protein-binding protein 1, full length (G3BP1, Homo sapiens, UniProt Q13283)
Sequence of UniProt Q13283 (whole entry, looked up): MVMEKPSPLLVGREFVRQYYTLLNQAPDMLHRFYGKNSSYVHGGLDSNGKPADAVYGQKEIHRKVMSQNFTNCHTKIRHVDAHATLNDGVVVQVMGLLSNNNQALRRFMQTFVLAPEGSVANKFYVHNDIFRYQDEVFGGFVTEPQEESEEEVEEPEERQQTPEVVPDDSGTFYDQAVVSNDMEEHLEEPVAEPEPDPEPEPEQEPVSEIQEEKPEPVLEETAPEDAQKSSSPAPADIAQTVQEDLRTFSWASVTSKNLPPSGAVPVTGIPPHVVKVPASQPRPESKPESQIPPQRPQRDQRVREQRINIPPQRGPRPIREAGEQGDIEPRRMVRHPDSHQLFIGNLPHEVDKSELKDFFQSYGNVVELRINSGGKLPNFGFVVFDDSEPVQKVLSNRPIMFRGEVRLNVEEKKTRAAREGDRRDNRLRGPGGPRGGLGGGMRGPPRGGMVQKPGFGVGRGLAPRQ
GGGAGUUCUACAGUCCGACGAUCUAACUUUAGAGGAGGAUCUUAUGGAUAUGGCAGUGGACGUGGAUUUGGGGAUGGCUAUAAUGGGUAUGGAGGAGGACCUGGAGGUGGCAAUGGAAUUCUCGGGUGUCAAGG: 0.0191
GGGAGUUCUACAGUCCGACGAUCCCUGUGCUACACAUCGUAUGUACCGAAUCGGGUUUUUUUGGUUUUUUUGGGUUUUUUUGGAAAGUAUUAUGUUACGCCGUUCGGAUCUGCUGGAAUUCUCGGGUGUCAAGG: 0.772
GGGAGUUCUACAGUCCGACGAUCGCAGGAAGUAAAAACAAAUGGAAAUGCUUCGGAUAGUGGCAGGGCUGGGGGUUGCUAAGGAAAGGGUGGGAUGGGAGUGGGUAAAGAGUUUGGAAUUCUCGGGUGUCAAGG: 0.0688
GGGAGUUCUACAGUCCGACGAUCUCGGAGGUGGAUUUUGUUUAUUUUUUUAGCUCAUUUCCAGGGGUGGGAAUUUUUUUUUAAUAUGUGUCAUGAAUAAAGUUGUUUUUGAAAUGGAAUUCUCGGGUGUCAAGG: 0.428

Set 3 — target: CCND3, cyclin fold, Cln2 fusion (human); technique: yeast growth competition, sequencing; medium: yeast; notes: weak parent motif; relative to: not given; direction: higher = stronger binding; measurement: normalised enrichment score
Starting sequence: WEE1 docking peptide (human); HKTFRKLRLFDTP
HKTFRKLRLFNTP [D11N]: 0.00219
HKTFRKLRLFDTQ [P13Q]: -0.0104
HKTFRKWRLFDTP [L7W]: 0.0679
HKTFRKLRLMDTP [F10M]: 0.136

Further values, each from its own experiment
PhoQ, residues 284 288 289 292 302 303 DDMDFR
fold induction (PhoP, residues 12 14 15 18 19 SGWQI (Escherichia coli, UniProt P23836); Sort-seq, measured: YFP reporter; E. coli; PhoQ-PhoP variant library, with: 10 µM Mg2+; relative to: high Mg2+ state, higher = stronger signaling): 1.2

Excerpt of the above (set 1):
AGAAAAUUUUAACCAAGAAUCUGAAAGUAGAAAUACAGGACCAUGGUUAUCUUCCUCACUUAGAAAUAGAUGCACACCUUUGUUCUCUAGAAGGAGGCGAGAGGGAAGAGAUGAAUCUUC: 0.782 ratio
